Experimental data of several laboratories.
Protocols differ between the studies behind these lines. ± gives the spread as reported.
Organism: Plasmodium falciparum

For `Cc1[nH]c(/C=C2\N=C(c3ccc[nH]3)C=C2OC(C)C)cc1Cc1ccc(Cl)cc1`, the IC50 was 7.11 nM (parasite growth, SYBR Green fluorescence; Dd2 (multidrug-resistant), asexual blood stage; 72 h).
`Cc1cc(Nc2ccnc3ccc(-c4ccc(S(=O)(=O)N5CCOCC5)cc4)cc23)on1` gave an EC50 of 2200 nM (parasite growth, SYBR Green; D6).
For `CCONC(=O)N1CCC[C@H](C(=O)NCc2nc(-c3ccccc3)cs2)C1`, the EC50 was 51 ± 11 nM (SYBR Green growth; asexual blood-stage parasites, 3D7; 72 h).
`Cc1nnc(Nc2ccnc3ccc(-c4ccc(S(=O)(=O)N5CCOCC5)cc4)cc23)nc1C` has an EC50 of 1300 nM (parasite growth, SYBR Green; W2).
With `COc1cc(C(=O)N(C)C)ccc1-c1cc2nccc(-c3ccc4ccncc4c3)c2o1` the parasite growth was 2.89% (LDH readout; 3D7 Hyp1-Nluc; 20 µM, 72 h; reference: DMSO).
For `Cc1noc(C)c1Nc1ccnc2ccc(-c3ccc(S(=O)(=O)N4CCOCC4)cc3)cc12`, the EC50 was > 20000 nM (parasite growth, SYBR Green; TM91C235).
`C[C@H]1[C@@H](C(=O)NCc2nc(-c3ccc(C#N)cc3)cs2)CCCN1C(=O)[C@H]1CCO1` gave an EC50 of 14 ± 3.1 nM (SYBR Green growth; asexual blood-stage parasites, 3D7; 72 h).
For `O=S(=O)(c1ccc(-c2ccc3nccc(Nc4ccnnc4)c3c2)cc1)N1CCOCC1`, the EC50 was 17000 nM (parasite growth, SYBR Green; W2).
`COCC(=O)N1CCC[C@H](C(=O)NCc2nc(-c3cccc(F)c3)cs2)C1` gave an EC50 of 240 ± 49 nM (SYBR Green growth; asexual blood-stage parasites, 3D7; 72 h).
For `Oc1cccc(C(Nc2nccs2)c2ccc3cccnc3c2O)c1` (stereo not shown), the inhibition was 50% (erythrocyte invasion; 9.02 µM).
`COC1=CC(c2ccc[nH]2)=N/C1=C\c1[nH]c(C(=O)O)cc1Cc1ccc(OC(F)(F)F)cc1` gave an IC50 of > 2500 nM (parasite growth, SYBR Green fluorescence; Tm90-C2B (atovaquone-resistant), asexual blood stage; 72 h).
Under “time to kill 99.9%”, `Cn1nc2c(=O)n(C3CC3)cnc2c1[C@](O)(c1cnc(C(F)(F)F)c(Cl)c1)C(F)(F)F` is recorded as 72 h (parasite reduction ratio; 3D7).
With `CNS(=O)(=O)c1ccccc1Nc1nc(Nc2cc(OC)c(OC)cc2C)ncc1Br` the parasite growth was 2.37% (nanoluciferase readout; 3D7 Hyp1-Nluc; 2 µM, 72 h; reference: DMSO).
`CCOC1=CC(c2ccc[nH]2)=N/C1=C\c1cc(Cc2ccc(Cl)cc2)c(C)[nH]1` gave an IC50 of 4.12 nM (parasite growth, SYBR Green fluorescence; Dd2 (multidrug-resistant), asexual blood stage; 72 h).
For `Cn1nc2c(=O)n(C3CC3)ccc2c1[C@](O)(c1cnc(C(F)(F)F)c(Cl)c1)C(F)(F)F`, the EC50 was 0.45 nM (parasite growth).
The EC50 of `COCC(=O)N1CCC[C@H](C(=O)NCc2nc(-c3cccc(OC)c3)cs2)C1` is reported as 2100 ± 620 nM (SYBR Green growth; asexual blood-stage parasites, 3D7; 72 h).
For `CCc1nnc(-c2ccc3ccn(CC(=O)Nc4cc(OC)c(OC)c(OC)c4)c3c2)o1`, “time to undetectable parasitaemia” read 72 h (3D7 ring stage; 10 × EC50).
`Cc1cnc(Nc2ccnc3ccc(-c4ccc(S(=O)(=O)N5CCOCC5)cc4)cc23)s1` has an EC50 of 370 nM (parasite growth, SYBR Green; W2).
`O=C(CC1NCCCC1O)Cn1cnc2cc(Br)c(Cl)cc2c1=O` (stereo not shown) gave an IC50 of 0.04 nM (parasite growth; cPRS conditional knockdown line; 72 h, with: 3 nM anhydrotetracycline).
`COC1=C(OC)/C(=C/c2[nH]c(Cc3ccc(Cl)cc3)cc2Cc2ccc(Cl)cc2)N=C1c1ccc[nH]1` has an IC50 of > 2500 nM (parasite growth, SYBR Green fluorescence; Dd2 (multidrug-resistant), asexual blood stage; 72 h).
With `CC(C)NCCOCC(=O)N1CCC[C@H](C(=O)NCc2nc(-c3ccc(C(F)(F)F)cc3)cs2)C1` the EC50 was 57 ± 16 nM (SYBR Green growth; asexual blood-stage parasites, 3D7; 72 h).
For `CCc1nc(N)nc(N)c1-c1ccc(Cl)cc1`, the lag phase was 24 h (parasite reduction ratio washout; 3D7; 10 x EC50).
The inhibition of `CNS(=O)(=O)c1ccccc1Nc1nc(Nc2ccc(N3CCOCC3)cc2OC)ncc1Br` is reported as 73.8% (invasion and early ring development; Hyp1-Nluc; 10 x growth EC50, 4 h).
The extracellular parasites of `Cc1nnc(-c2ccc3ccn(CC(=O)Nc4ccccc4Cl)c3c2)o1` is reported as 8% (Giemsa-stained smears; red blood cells, 3D7 Hyp1-Nluc; 10 × EC50, 8 h).
`O=C(NCc1nc(-c2ccccc2)cs1)[C@H]1CCCN(C(=O)c2cccs2)C1` gave an EC50 of 890 ± 200 nM (SYBR Green growth; asexual blood-stage parasites, 3D7; 72 h).
With `COc1nc2ccc(Br)cc2cc1[C@@H](c1ccccc1)[C@@](O)(CCN(C)C)c1cccc2ccccc12` the inhibition was 100% (erythrocyte invasion; 4.64 µM).
For `O=C(NCc1nc(-c2ccccc2)cs1)[C@H]1CCCN(C(=O)COCC(F)(F)F)C1`, the EC50 was 78 ± 14 nM (SYBR Green growth; asexual blood-stage parasites, 3D7; 72 h).
With `O=S(=O)(c1ccc(-c2ccc3nccc(Nc4ccncn4)c3c2)cc1)N1CCOCC1` the EC50 was > 20000 nM (parasite growth, SYBR Green; TM91C235).
With `CCC[C@@H]1C[C@@H](C(=O)N[C@@H]([C@H]2O[C@H](SC)[C@H](O)[C@@H](O)[C@H]2O)[C@H](C)Cl)N(C)C1` the IC50 ratio was > 140 (growth; 3D7; 96 h, with: 200 µM IPP; reference: with IPP over without IPP).
For `Cc1cc(Nc2ccc(S(F)(F)(F)(F)F)cc2)n2nc(C(C)(F)F)nc2n1`, “PC50 parasite clearance time median” read 14.6 h (microscopy; P. falciparum malaria patients; oral, 400 mg).
`CCOCC(=O)N1CCC[C@H](C(=O)NCc2nc(-c3ccc(C#N)nc3)cs2)C1` gave an EC50 of 13 ± 10 nM (SYBR Green growth; asexual blood-stage parasites, 3D7; 72 h).
With `COc1cc(OC)c(CCNC(=O)c2cn3cc(-c4cc(OCC(=O)O)ccc4OC)nc3s2)c(OC)c1` the inhibition was -41.5% (schizont egress, Nluc release; Hyp1-Nluc; 10 x growth EC50, 4 h).
`Cn1nc2c(=O)n(C3CC3)ncc2c1[C@](N)(c1ccc(C(F)(F)F)c(Cl)c1)C1CC1` gave an EC50 of 8.6 nM (parasite growth).
The EC50 of `N#Cc1cnc(Nc2ccnc3ccc(-c4ccc(S(=O)(=O)N5CCOCC5)cc4)cc23)cn1` is reported as 820 nM (parasite growth, SYBR Green; W2).
With `O=C1C(O)=C([C@H]2CC[C@H](c3ccc(Cl)cc3)CC2)C(=O)c2ccccc21` the IC50 was > 2500 nM (parasite growth; Tm90-C2B, multidrug-resistant; 72 h).
With `Cn1cc(-c2cnc3[nH]cc(-c4cn(Cc5cccc(F)c5F)nn4)c3c2)cn1` the inhibition was 89.2% (schizont egress, Nluc release; Hyp1-Nluc; 10 x growth EC50, 4 h).
The selectivity ratio of `O=C(CCCCCONC(=O)c1nc(-c2ccccn2)cs1)NO` is reported as 5 (3D7; reference: NFF cells over P. falciparum).
For `CCN(CC)CCCC(C)Nc1ccnc2cc(Cl)ccc12` (stereo not shown), “parasite clearance time” read 96 h (parasite reduction ratio; 3D7 ring stage; 10-fold IC50).
The selectivity index of `CC1=C(Cn2cc(CBr)nn2)C(=O)c2ccccc2C1=O` is reported as 3.3 (NF54; reference: L6 CC50 over IC50).
The IC50 of `CCOC1=CC(c2ccc[nH]2)=N/C1=C\c1cc(Cc2ccc(OC(F)(F)F)cc2)c(C)[nH]1` is reported as 5.88 nM (parasite growth, SYBR Green fluorescence; Dd2 (multidrug-resistant), asexual blood stage; 72 h).
`COc1ccc(CNc2nc(-c3ccc(C(=O)O)nc3)nc3sc4c(c23)CCCC4)cc1Cl` gave an inhibition of 46.4% (invasion and early ring development; Hyp1-Nluc; 10 x growth EC50, 4 h).
For `Cc1[nH]c(/C=C2\N=C(c3ccc[nH]3)C3=C2OCCO3)cc1Cc1ccc(OC(F)(F)F)cc1`, the IC50 was 24.8 nM (parasite growth, SYBR Green fluorescence; Tm90-C2B (atovaquone-resistant), asexual blood stage; 72 h).
`Cc1cc(Nc2ccnc3ccc(-c4ccc(S(=O)(=O)N5CCOCC5)cc4)cc23)sn1` has an EC50 of 430 nM (parasite growth, SYBR Green; D6).

A few entries again:
The EC50 of `N#Cc1cnc(Nc2ccnc3ccc(-c4ccc(S(=O)(=O)N5CCOCC5)cc4)cc23)cn1` is reported as 820 nM (parasite growth, SYBR Green; W2).
With `O=C1C(O)=C([C@H]2CC[C@H](c3ccc(Cl)cc3)CC2)C(=O)c2ccccc21` the IC50 was > 2500 nM (parasite growth; Tm90-C2B, multidrug-resistant; 72 h).
With `Cn1cc(-c2cnc3[nH]cc(-c4cn(Cc5cccc(F)c5F)nn4)c3c2)cn1` the inhibition was 89.2% (schizont egress, Nluc release; Hyp1-Nluc; 10 x growth EC50, 4 h).
